Measured values collected from several papers.
Protocols differ between the studies behind these lines. Numbers after ± are the reported error.

| SMILES | test | test system | setting | IC50 |
| --- | --- | --- | --- | --- |
| Nc1nnc(S)[nH]1 | CoA-CPM signal reduction, CPM fluorescence thiol | cell-free biochemical | assay interference counter-screen, added: CoA replacing acetyl-CoA | > 125 µM |
| ON=C1C2CC3CC(C2)CC1C3 | pH gradient | Escherichia coli inverted membrane vesicles | – | > 1000 µM |
| COc1ccc(O)c(C(C)(C)C)c1 | DMPD radical scavenging | – | – | 12 µg/mL |
| CC(C)=CCC/C(C)=C/C=N\O | pH gradient | Escherichia coli inverted membrane vesicles | – | > 1000 µM |
| CN(CC[C@H](N)CC(=O)N[C@H]1C=C[C@H](n2ccc(N)nc2=O)O[C@@H]1C(=O)O)C(=N)N | transcription/translation | Escherichia coli S30 extract | – | 0.002 ± 0.001 µM |
| COc1cc(NC(C)CCCN)c2ncccc2c1 (centres unmarked) | angiogenesis | zebrafish | – | 4 µM |
| CC(C)=CCCC1(C)CC=NO1 (centres unmarked) | pH gradient | Escherichia coli inverted membrane vesicles | – | > 1000 µM |
| C[C@H]1O[C@H](O[C@H]2CC[C@H](n3ccc(NC(=O)c4ccc(NC(=O)[C@@](C)(N)CO)cc4)nc3=O)O[C@@H]2C)[C@H](O)[C@@H](O)[C@@H]1N(C)C | transcription/translation | Escherichia coli S30 extract | – | 0.207 ± 0.099 µM |
| Sc1nc2ccccc2[nH]1 | CoA-CPM signal reduction, CPM fluorescence thiol | cell-free biochemical | assay interference counter-screen, added: CoA replacing acetyl-CoA | > 125 µM |
| N.N.O=C([O-])C1(C(=O)[O-])CCC1.[Pt+2] | cell viability | patient-derived ovarian cancer organoids | 96 h | 49.4 µM |
| Cc1c(C)c2c(c(C)c1O)CCC(C)(C(=O)O)O2 (centres unmarked) | DMPD radical scavenging | – | – | 4.33 µg/mL |

Excerpt of the above:
| SMILES | test | test system | setting | IC50 |
| --- | --- | --- | --- | --- |
| CN(CC[C@H](N)CC(=O)N[C@H]1C=C[C@H](n2ccc(N)nc2=O)O[C@@H]1C(=O)O)C(=N)N | transcription/translation | Escherichia coli S30 extract | – | 0.002 ± 0.001 µM |
